Measured values collected from several papers.
Compare with care: the assays were run in different laboratories. ± gives the spread as reported.

Molecule | test | system | conditions | how to read | endpoint | result
O=C1CSC(N=C2c3ccccc3-c3nc4cc(F)ccc4nc32)=N1 |  | mouse, STZ-induced diabetes | oral, 25 mg/kg, day 3 |  | blood glucose | 311 ± 19.5 mg/dL
hen egg-white lysozyme | IL-2 secretion | Iso.210 T cell hybridoma, B10.BR mouse | overnight, with: M12.C3.F6 antigen-presenting cells |  | highest concentration without response | > 30 µM
CCN(CC)CCNC(=O)c1c(C)[nH]c(/C=C2\C(=O)Nc3ccc(F)cc32)c1C | refers to: CD31 | mouse, C26 tumour, tumour | oral, 100 mg/kg, two weeks |  | microvessel area | decreased
O=C1CCc2ccc(OCc3nnc(SCc4ccc(F)cc4)o3)cc2N1 | forced swimming test | mice | 40 mg/kg, 0.5 h | reference: control | immobility duration decrease | 36.3%
CC[C@H](C)[C@H](NC(=O)[C@H](C)NC(=O)[C@H](CCCNC(=N)N)NC(=O)[C@H](Cc1c[nH]c2ccccc12)NC(=O)[C@H](CCC(N)=O)NC(=O)[C@@H](N)C(C)C)C(=O)N[C@@H](CCCNC(=N)N)C(=O)N[C@H](C(=O)N[C@@H](CCCNC(=N)N)C(=O)N[C@H](C(=O)N[C@H](C(=O)N[C@@H](CCCNC(=N)N)C(N)=O)[C@@H](C)CC)C(C)C)C(C)C | carboxyfluorescein release | EYPC vesicles | 10 µg/mL, 250 s, pH 7.4, 25 °C | reference: Triton X-100 | leakage | 1%
Cc1nnc(-c2cc(C(=O)N3CCC(c4ccc(C#N)cc4)CC3)c(C)cc2C2CCC2)[nH]1 |  | patients with advanced solid tumours | dose not given, monotherapy RECIST |  | disease control rate | 42%
O=C(NCc1ccncc1)C12CC3CC(C1)CC(c1ccc(Cl)cc1)(C3)C2 | RECIST | human, advanced solid tumours | 250 mg once daily |  | partial response | 7%
CCCCCCCCCCCCCCCC(=O)NCCCC[C@H](NC(=O)[C@H](CCC(=O)O)NC(=O)[C@H](CCC(=O)O)NC(=O)[C@H](Cc1ccc(O)cc1)NC(=O)[C@H](CCC(=O)O)NC(=O)CCCCCNC(=S)Nc1ccc2c(c1)C(=O)OC21c2ccc(O)cc2Oc2cc(O)ccc21)C(=O)N[C@@H](Cc1ccc(O)cc1)C(=O)N[C@@H](CCC(=O)O)C(=O)NCC(=O)NCC(=O)NCC(=O)NCC(=O)N[C@@H](CO)C(=O)NCC(=O)NCC(=O)NCC(=O)NCC(=O)N[C@@H](CO)C(=O)N[C@@H](Cc1ccccc1)C(=O)N[C@@H](CC(N)=O)C(=O)N1CCC[C@H]1C(=O)N[C@@H](CCCNC(=N)N)C(=O)N[C@@H](Cc1c[nH]cn1)C(=O)NC(C)(C)C(=O)N[C@@H](CCC(=O)O)C(=O)NCC(=O)N[C@H](C(=O)N[C@@H](Cc1ccccc1)C(=O)N[C@H](C(=O)N[C@@H](CO)C(=O)N[C@@H](CC(=O)O)C(=O)N[C@H](C(=O)N[C@@H](CO)C(=O)N[C@@H](CO)C(=O)N[C@@H](Cc1ccc(O)cc1)C(=O)N[C@@H](CC(C)C)C(=O)N[C@@H](CCC(=O)O)C(=O)NCC(=O)N[C@@H](CCC(N)=O)C(=O)N[C@@H](C)C(=O)N[C@@H](C)C(=O)N[C@@H](CCCCN)C(=O)N[C@@H](CCC(=O)O)C(=O)N[C@@H](Cc1ccccc1)C(=O)N[C@H](C(=O)N[C@@H](C)C(=O)N[C@@H](Cc1c[nH]c2ccccc12)C(=O)N[C@@H](CC(C)C)C(=O)N[C@H](C(=O)N[C@@H](CCCCN)C(=O)NCC(=O)N[C@@H](CCCNC(=N)N)C(=O)NCC(=O)O)C(C)C)[C@@H](C)CC)C(C)C)[C@@H](C)O)[C@@H](C)O |  | db/db mouse | subcutaneous, 90 nmol/kg, 0.5 h before glucose, AUC 0-120 min, with: oral glucose 2.0 g/kg | reference: saline | glucose reduction | 57.8%
CC(C)n1cnc(-c2ccc(F)cc2)c1-c1ncc(C(=O)Nc2ccc(N3CCN(C)CC3)cc2)[nH]1 |  | IPF patients | 60 mg once daily, week 12, least-squares mean |  | FVC change from baseline | 2.82%
AGEDPHGYFLPGQFA |  | peptide, C57BL/6J mouse, zymosan peritonitis | ip, 0.32 ng/kg, 4 h after zymosan, dosed 1 h before zymosan |  | peritoneal monocytes | 300000 cells
CCC1=C[C@@H]2CN(C1)Cc1c([nH]c3ccccc13)[C@@](C(=O)OC)(c1cc3c(cc1OC)N(C)[C@H]1[C@@](O)(C(=O)OC)[C@H](OC(C)=O)[C@]4(CC)C=CCN5CC[C@]31[C@@H]54)C2 | tumour volume | mice, MIA PaCa-2 xenograft |  | reference: vehicle | minimum effective dose | 30 mg/m²
insulin aspart |  | obese type 2 diabetes patients | subcutaneous, 0.2 U/kg, before standard meal |  | maximum glucose excursion | 40 mg/dL
Oc1cc2c(cc1O)C(c1ccccc1)CNCC2 (stereo not drawn) | five-choice serial reaction time task | male Lister hooded rat, low performers | intraperitoneal, 6 mg/kg |  | accuracy | 70.9 ± 1.89%
CSVTCG | inhibitor | peptide, human platelet-rich plasma | 500 µg/mL, with: ADP 4 µM |  | platelet aggregation | inhibited
CCOc1ccc(Cc2cc([C@@H]3O[C@H](SC)[C@@H](O)[C@H](O)[C@H]3O)ccc2Cl)cc1 |  | healthy Chinese subjects | oral, 200 mg once daily, 24 h, day 1 |  | urinary glucose excretion | 33.9 g
CC(C)c1cc(Oc2c(Cl)cc(-n3nc(C#N)c(=O)[nH]c3=O)cc2Cl)n[nH]c1=O | circulating triglycerides at vehicle level | Sprague Dawley rats, diet-induced dyslipidemia | with: ACC inhibitor 30 mg/kg |  | dose | ≥ 1 mg/kg
CS/C(S)=N/CCCC[S+](C)[O-] (racemic) | RT-PCR, refers to: Alad | rat, liver | oral gavage, 200 mg/kg, 96 h, dosed for four days | reference: vehicle | mRNA fold change | 0.553
CC(C)C[C@H](NC(=O)[C@H](CO)NC(=O)[C@H](CCCNC(=N)N)NC(=O)[C@H](CC(=O)O)NC(=O)[C@H](CCC(=O)O)NC(=O)[C@H](C)NC(=O)[C@@H]1CCCN1C(=O)[C@H](C)NC(=O)[C@H](CCC(=O)O)NC(=O)[C@@H]1CCCN1C(=O)[C@@H]1CCCN1)C(N)=O | HPLC-EC | F344 rat, normal, striatum, wet tissue, both hemispheres | intranasal, 1000 µg, 5 days/week for 3 weeks |  | dopamine level | 9910 ± 991 ng/g
O=c1cc(N2CCOCC2)oc2c(-c3ccccc3)cccc12 | Western blot | mouse myocardial infarction, myocardium | intraperitoneal, 1.5 mg/kg/day, with: PEG-exendin-4 |  | Akt phosphorylation | inhibited
CC(=O)N[C@@H](CCCCN)C(=O)N[C@@H](CC(C)C)C(=O)N[C@@H](CC(=O)O)C(=O)N[C@@H](CC(C)C)C(=O)N[C@@H](CCCCN)C(=O)N[C@@H](CC(C)C)C(=O)N[C@@H](CC(=O)O)C(=O)N[C@@H](CC(C)C)C(=O)N[C@@H](CCCCN)C(=O)N[C@@H](CC(C)C)C(=O)N[C@@H](CC(=O)O)C(=O)N[C@@H](CC(C)C)C(N)=O |  | Sprague Dawley rat, knee OA model, knee cartilage | intra-articular, dose not given, 6 weeks | direction not given | modified Mankin score | 4 ± 0.8
COc1ccc(-n2nc(C(N)=O)c3c2C(=O)N(c2ccc(N4CCCCC4=O)cc2)CC3)cc1 | functional antithrombin | human, plasma | dose not given, drug plasma level above 100 ng/mL | reference: pretreatment samples | antithrombin activity increase | 18%
CC1CCC(C(C)C)C(O)C1 (stereo not drawn) |  | Wistar rat | epidermal, 10 g of 0.5% ointment |  | preferred ambient temperature | ~27 °C
COc1ccc2c(c1)c(CC(=O)O)c(C)n2C(=O)c1ccc(Cl)cc1 | multiplex bead immunoassay, refers to: IL-1α | CD-1 mice, serum | ip, 20 mg/kg, three-injection regimen, with: LPS 3 mg/kg |  | cytokine level | 433 ± 129 pg/mL
CC(=O)Nc1cccc(OCc2nnc(SCc3cccc(C)c3)o2)c1 | forced swimming test | mice | 40 mg/kg, 0.5 h | reference: control | immobility duration decrease | 32.1%
CC12CCC(CC1=O)C2(C)C (stereo not drawn) | two-choice feeding trial | Brachylagus idahoensis | 1% dry weight in diet, 72 h, with: monoterpene mixture 1% dry weight |  | proportion of food consumed | 66 ± 0.08%
O=C(NC[C@H]1CN(c2ccc(N3CCOCC3=O)cc2)C(=O)O1)c1ccc(Cl)s1 |  | human, mild renal impairment, plasma | oral, 10 mg, with: erythromycin at steady state | reference: same subjects, compound alone | prothrombin time Emax increase | ~14%
O=C1N=C(NN=C2C(=O)Nc3ccccc32)SC1=C1c2ccccc2-c2nc3cc(F)ccc3nc21 |  | mouse, STZ-induced diabetes | oral, 25 mg/kg, day 3 |  | blood glucose | 341 ± 39.2 mg/dL
CC1(C)CCC(CN2CCN(c3ccc(C(=O)NS(=O)(=O)c4ccc(NCC5CCOCC5)c([N+](=O)[O-])c4)c(Oc4cnc5[nH]ccc5c4)c3)CC2)=C(c2ccc(Cl)cc2)C1 | cell viability | canine leukemia cells, human |  |  | EC50 | 1650 nM
CC(=O)Nc1cccc(OCc2nnc(SCc3ccc(Cl)cc3)o2)c1 | forced swimming test | mice | 40 mg/kg, 0.5 h | reference: control | immobility duration decrease | 58.9%
Cc1cc(C)c(/C=C2\C(=O)Nc3ccccc32)[nH]1 | MRI, enhancing lesion | human | concentration not given, 2.6 months |  | tumour area | 4.6 cm²

Some of these lines once more:
Molecule | test | system | conditions | how to read | endpoint | result
CC(=O)N[C@@H](CCCCN)C(=O)N[C@@H](CC(C)C)C(=O)N[C@@H](CC(=O)O)C(=O)N[C@@H](CC(C)C)C(=O)N[C@@H](CCCCN)C(=O)N[C@@H](CC(C)C)C(=O)N[C@@H](CC(=O)O)C(=O)N[C@@H](CC(C)C)C(=O)N[C@@H](CCCCN)C(=O)N[C@@H](CC(C)C)C(=O)N[C@@H](CC(=O)O)C(=O)N[C@@H](CC(C)C)C(N)=O |  | Sprague Dawley rat, knee OA model, knee cartilage | intra-articular, dose not given, 6 weeks | direction not given | modified Mankin score | 4 ± 0.8
CC[C@H](C)[C@H](NC(=O)[C@H](C)NC(=O)[C@H](CCCNC(=N)N)NC(=O)[C@H](Cc1c[nH]c2ccccc12)NC(=O)[C@H](CCC(N)=O)NC(=O)[C@@H](N)C(C)C)C(=O)N[C@@H](CCCNC(=N)N)C(=O)N[C@H](C(=O)N[C@@H](CCCNC(=N)N)C(=O)N[C@H](C(=O)N[C@H](C(=O)N[C@@H](CCCNC(=N)N)C(N)=O)[C@@H](C)CC)C(C)C)C(C)C | carboxyfluorescein release | EYPC vesicles | 10 µg/mL, 250 s, pH 7.4, 25 °C | reference: Triton X-100 | leakage | 1%
CCN(CC)CCNC(=O)c1c(C)[nH]c(/C=C2\C(=O)Nc3ccc(F)cc32)c1C | refers to: CD31 | mouse, C26 tumour, tumour | oral, 100 mg/kg, two weeks |  | microvessel area | decreased
